Measurements collected from several papers.
Every numbered part comes from another study and shows a few of its results, in no order.

Set 1
Target: RING finger protein unkempt homolog, zinc fingers 1-6, GST-SBP tag (UNK, Homo sapiens, UniProt Q9C0B0, residues 30-357)
Sequence of UniProt Q9C0B0 (30-357, looked up): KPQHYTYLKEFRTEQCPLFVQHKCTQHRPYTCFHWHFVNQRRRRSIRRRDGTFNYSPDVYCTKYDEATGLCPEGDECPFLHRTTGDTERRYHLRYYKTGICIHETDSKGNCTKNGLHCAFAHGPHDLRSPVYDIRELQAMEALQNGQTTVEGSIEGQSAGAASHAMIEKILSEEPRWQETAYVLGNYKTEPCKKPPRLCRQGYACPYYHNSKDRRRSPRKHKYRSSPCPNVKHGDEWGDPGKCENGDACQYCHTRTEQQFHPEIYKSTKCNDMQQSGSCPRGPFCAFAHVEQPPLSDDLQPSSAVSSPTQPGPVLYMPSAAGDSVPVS
Method: RNA Bind-n-Seq
Form: RNA
Matrix: in vitro
Tested at: not given
Setting: RNA with constant flanks, human and mouse sites, ends assumed
Reference: input RNA pool
Reading: higher = stronger binding
`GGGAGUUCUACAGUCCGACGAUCGCUGAACCUGAUAUUAUUGAACAACUGGUGGAAUUUGCUUAUACUGCUAGAAUUUCUGUGAAUAGCAACAAUGUUCAGUCUUUGUUAGAUGCAGCAAAUCAGUACCAGAUUGAACCUGUGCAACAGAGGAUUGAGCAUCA` gave a bound/input enrichment of 0.332 ratio.
`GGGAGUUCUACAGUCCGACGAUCAAUGAUGAUGCUAUGCUGAUCGAGAAGUUUGUAGACACACCGAGGCAUGUAGAAGUCCAGGUGUUUGGUGAUCACCAUGGCAAUGCUGUGUACUUGUUUGAAAGAGACUGUAGUGUGCAGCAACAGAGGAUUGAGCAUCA` has a bound/input enrichment of 0.672 ratio.
For `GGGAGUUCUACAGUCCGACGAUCGAGGAAGAGAAUGCUGUUUUAAAGUUCCCUGAGCAGGCAGGGACCCUGCAGAAUGCAACUACUAGCAGCUCCCUGACAGCACAUCUCAGAAGCCUCUCCAAAGGCGAAUCCCCUGUGGCUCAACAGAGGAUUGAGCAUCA`, the bound/input enrichment was 0.117 ratio.
For `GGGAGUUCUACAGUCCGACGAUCUACUGCUUUCAACUUAAAUCACUGAGGCAUUUUUACUACUAUUCUGUUAAAAUCAGGAUUUUAGUGCUUGCCACCACCAGAUGAGAAGUUAAGCAGCCUUUCUGUGGAGAGUGAGAAUAACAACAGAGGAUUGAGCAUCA`, the bound/input enrichment was 0.136 ratio.
With `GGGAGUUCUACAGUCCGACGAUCGAGUACAUUGUCUAUGAUAUUGCUCAGGUAAAUCUGAAGUAUCUGCUGAAACUGAAAUUCAAUUUUAAGACCUCCCUGUGGUAAUUGGGAGAGGUAGCCGAGUCACACCCGGUGGCUCUGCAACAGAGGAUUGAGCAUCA` the bound/input enrichment was 0.152 ratio.
The bound/input enrichment of `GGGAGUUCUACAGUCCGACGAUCCCGCCCUGGUCUCAGGCGCCAGUGGAAAUGUGUCCAGCGACGUUGCCUACGGGGUAAACAUGCCCGCCGCAAGGGAGGCUGUGACUCCAAGAUGGCUGCCAGGCGGCGCCCCGGAGCCCACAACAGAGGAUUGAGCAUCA` is reported as 0.1 ratio.
`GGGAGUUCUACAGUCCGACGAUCUUAGAAUGUUAUUUAGACCAAGUUUAGCUUUUAGAGUCCAGGUCUGGUUAAUUGCCAGGGUAGCAAAGAAUCGCAUGCACCAAUGUAAACAGGAGUCAGAAUGCAUUAUUAGUCAAAGAUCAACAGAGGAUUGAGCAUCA` gave a bound/input enrichment of 1.66 ratio.
The bound/input enrichment of `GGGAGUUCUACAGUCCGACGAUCAGCUAUGUGAGUAGGAGAAGGAGAACUAAAAAGAGUGUGGAUACAAGCGUCCAAACUGAUGAUGAAGAUCAGGAUGAGUGGGAUAUGCCUACUAGAUCAAGGAGGAAAGCUCGUGUAGGGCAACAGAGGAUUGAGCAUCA` is reported as 0.451 ratio.

Set 2
Target: Histone acetyltransferase KAT6A, both winged helices, GST fusion (KAT6A, Homo sapiens, UniProt Q92794, residues 1-181)
Method: protein binding microarray
Form: double-stranded DNA, one strand shown
Matrix: in vitro
Tested at: not given
Setting: 8-mer, flanks averaged, mean of 2 arrays, mostly near background
Reference: not given
Reading: higher = stronger binding
Residues (chain): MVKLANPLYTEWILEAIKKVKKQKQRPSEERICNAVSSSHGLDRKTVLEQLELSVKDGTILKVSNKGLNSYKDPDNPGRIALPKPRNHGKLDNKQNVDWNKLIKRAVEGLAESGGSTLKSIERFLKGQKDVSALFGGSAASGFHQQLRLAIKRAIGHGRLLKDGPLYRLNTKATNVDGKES
The E-score of `AATGTGGG` is reported as -0.169.
`GAGTCCGC` has an E-score of 0.177.
`AGCGCCCT` gave an E-score of 0.231.
For `GCCCCAAC`, the E-score was -0.286.
`CAATAATC` has an E-score of 0.0129.
`GCGGCATA` gave an E-score of 0.284.
With `ACCGTCCC` the E-score was 0.104.
With `AGTACACC` the E-score was -0.148.

Set 3
Target: RNA binding protein fox-1 homolog 2, RRM domain, GST-SBP tag (RBFOX2, Homo sapiens, UniProt O43251-10, residues 100-194)
Method: RNA Bind-n-Seq
Form: RNA
Matrix: in vitro
Tested at: 365 nM
Setting: natural RNA segment, single round, ends assumed
Reference: no-protein control
Reading: higher = stronger binding
Residues (chain): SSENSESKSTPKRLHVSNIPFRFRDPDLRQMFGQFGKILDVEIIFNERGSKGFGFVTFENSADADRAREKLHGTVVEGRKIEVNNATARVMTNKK
For `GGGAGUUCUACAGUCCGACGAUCGCUGUUAGGGCAGGAAGGGGCAAAAGGAAGACUUGGGUAGUAAUCUGGGGGUUCAGAUGGGUAGCACUAAGCCAGCUGGCCUAAAGAUGCAAUAAGUUCCUAGGUAGUCUUGGAAUUCUCGGGUGCCAA`, “RBNS enrichment (R)” read 0.552.
Under “RBNS enrichment (R)”, `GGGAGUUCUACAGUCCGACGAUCGGAGGGUCGGUCCAUUACAGACCCACAUCCUGGAGCACCCCCAUCUCCAUGUGUGAAGUAGCUUCCUCCCUCAGCCUGCAAGGGUCCGAUUUGCCAUCGAAAGACGACCUUGGAAUUCUCGGGUGCCAA` is recorded as 0.685.
For `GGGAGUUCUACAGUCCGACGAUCUGUUCUAACCCCCACCCCCACUGCCAGGUAUGGGCCAGCAGUUUCCUGCCAGAUAUUGCCCAGCGUGAGGAGCGAUCUCAGCAGGCCUAUAAGAGUCAGCAUGGAGAGCCUGGAAUUCUCGGGUGCCAA`, “RBNS enrichment (R)” read 2.01.
`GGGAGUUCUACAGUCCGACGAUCACACAGUGAAUAACCUCUUGGAGUAUUUUUGGCUUUAUAUAAAACAAGGUUUUUAAUUGUAAAGUAUAAGUGCCAUUAGAAAAUGCACAGGGCAUAUCUUUGUUAAAGUAUGGAAUUCUCGGGUGCCAA`: “RBNS enrichment (R)” 0.36.
Under “RBNS enrichment (R)”, `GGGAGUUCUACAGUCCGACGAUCUUCCUGACCCAAGAGACACCCUAUACAUGAGGGCCCAGCUCUUUACCUCUGGGGACAGCUGGCAUGCCUUUGGCUUUGUGUAGAGUAGGGUGGUGAGACCCUUCCUGGCUUGGAAUUCUCGGGUGCCAA` is recorded as 0.49.
For `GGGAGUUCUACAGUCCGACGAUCACAGAAACGCCUUAAGACACUAUGUUUGGGAAUAUAGGAAACUAUGUGUGUCCCAAGGAAAUCCCUGUAAAUUUAACUCACCUACAAAAGGCUUUUUCCCCGCCUUUGGUUGGAAUUCUCGGGUGCCAA`, “RBNS enrichment (R)” read 0.414.
`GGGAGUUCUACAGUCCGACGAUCCCCCGACCUGACACCUCAUAUGAUCUCUGCUUCUAAAAAUCAGGUGUGAUCCUACUUGAAAACAACCCUUGAGGAGGGCGCCUCGGUCACUGUGAGCAUGUCAGAGGCUUUGGAAUUCUCGGGUGCCAA` — result for “RBNS enrichment (R)”: 3.
For `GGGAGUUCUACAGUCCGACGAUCUUACUUUCUCUUUGGAGGGCGCUGGGACAUACAUCUCUCAAUCCAGCUUCCUCCGCAUCCUCCCAUCUUGCCCCAUUUCUGCCACGUCAGACACUUCCUGAGAGUCUCACUGGAAUUCUCGGGUGCCAA`, “RBNS enrichment (R)” read 0.533.

Set 4
Target: Replicase polyprotein 1ab, main protease (rep, Severe acute respiratory syndrome coronavirus 2, UniProt P0DTD1)
Effect on: enzyme activity
Mode: inhibitor
Tested at: 20 µM
Setting: hit confirmation
With CC1=NN(c2ccc(C)c(C)c2)C(=O)/C1=N/Nc1cccc(-c2cccc(C(=O)O)c2)c1O the inhibition was 2%.
With Cc1ccc(C(=O)n2nc(-c3cccnc3)nc2N)cc1 the inhibition was 84.3%.
O=C1c2cccc(O)c2C(=O)c2c(O)cccc21 gave an inhibition of 30.1%.

Set 5
Target: Replicase polyprotein 1ab, polymerase (rep, Severe acute respiratory syndrome coronavirus 2, UniProt P0DTD1)
Effect on: enzyme activity
Mode: inhibitor
Tested at: 20 µM
For C[C@H](N)Cc1cccc(O)c1, the inhibition was -2.07%.
COc1cc2c(cc1OC)C(c1ccc(N)cc1)=NNC(=O)C2 gave an inhibition of 0.41%.
For C[C@@H]1CCC[C@H](C)N1NC(=O)c1ccc(Cl)c(S(N)(=O)=O)c1, the inhibition was -7.46%.
The inhibition of CCCCC(=O)O[C@]1(C(=O)CO)[C@@H](C)C[C@H]2[C@@H]3CCC4=CC(=O)C=C[C@]4(C)[C@@]3(F)[C@@H](O)C[C@@]21C is reported as 0.86%.
O=C1NCCN1CCN1CCC(c2cn(-c3ccc(F)cc3)c3ccc(Cl)cc23)CC1 has an inhibition of 1.21%.
With O=C(OC[C@H]1O[C@@H](OC(=O)c2cc(O)c(O)c(OC(=O)c3cc(O)c(O)c(O)c3)c2)[C@H](OC(=O)c2cc(O)c(O)c(OC(=O)c3cc(O)c(O)c(O)c3)c2)[C@@H](OC(=O)c2cc(O)c(O)c(OC(=O)c3cc(O)c(O)c(O)c3)c2)[C@@H]1OC(=O)c1cc(O)c(O)c(OC(=O)c2cc(O)c(O)c(O)c2)c1)c1cc(O)c(O)c(OC(=O)c2cc(O)c(O)c(O)c2)c1 the inhibition was 98.5%.
The inhibition of CCCCCOc1ccc(-c2cc(-c3ccc(C(=O)N[C@H]4C[C@@H](O)[C@@H](O)NC(=O)[C@@H]5[C@@H](O)[C@@H](C)CN5C(=O)[C@H]([C@H](O)CC(N)=O)NC(=O)[C@H]([C@H](O)[C@@H](O)c5ccc(O)c(OS(=O)(=O)O)c5)NC(=O)[C@@H]5C[C@@H](O)CN5C(=O)[C@H]([C@@H](C)O)NC4=O)cc3)no2)cc1 is reported as 6.17%.
The inhibition of O=C(c1ccc(CN2CCOCC2)cc1)N1CCN(C2CC2)CC1 is reported as -1.08%.
For C[C@H](CCC(=O)NCCS(=O)(=O)O)[C@H]1CC[C@H]2[C@@H]3[C@@H](O)C[C@@H]4C[C@H](O)CC[C@]4(C)[C@H]3CC[C@]12C, the inhibition was -2.72%.
For CCn1nc(C2CCN(C(=O)CCO)CC2)nc1-c1cnc(N)c(-c2nnc(C(C)(C)C)o2)n1, the inhibition was 5.63%.
COc1ccc(N2CCOCC2)c2sc(NC(=O)N3CCC(C)(O)CC3)nc12 has an inhibition of -1.23%.
The inhibition of CC(C)(C)NC(=O)[C@H]1CC[C@H]2[C@@H]3CC[C@H]4NC(=O)C=C[C@]4(C)[C@H]3CC[C@]12C is reported as 1.1%.
For COC(=O)Nc1ccc(-c2nc(N3CCOCC3)c3cnn(C4CCN(Cc5cccnc5)CC4)c3n2)cc1, the inhibition was 3.72%.
For Cc1ccccc1CN1C(=O)C2=C(CCN(Cc3ccccc3)C2)N2CCN=C12, the inhibition was -0.9%.
O=C(O)[C@@H](c1ccc(OCc2ccc3ccccc3n2)cc1)C1CCCC1 has an inhibition of -3.61%.
The inhibition of CCCCCCCCCCCCCCCC(=O)OC[C@H](COP(=O)([O-])OCC[N+](C)(C)C)OC(=O)CCCCCCCCCCCCCCC is reported as -5.42%.
O=C(O)c1cc(=O)c2ccccc2o1 has an inhibition of 0.27%.
The inhibition of CC(C)C(=O)Oc1ccc(CO)cc1[C@H](CCN(C(C)C)C(C)C)c1ccccc1 is reported as -1.62%.
COCCOc1cnc2ccn([C@H](C)c3nnc4c(F)cc(-c5cnn(C)c5)cn34)c(=O)c2c1 has an inhibition of 2.73%.
CCOc1cc(C=O)ccc1O has an inhibition of -3.14%.
For O=C(O)C(Cc1ccccc1[N+](=O)[O-])=NNc1nc(-c2ccc(Cl)c(Cl)c2)cs1 (mixture of isomers), the inhibition was 18.7%.
For Cc1cn2c(N)c(Cl)cc(C(=O)NCC3CCN(CC(C)C)CC3)c2n1, the inhibition was 0.32%.
With CCN(CC)CCOC(=O)c1ccc(N)cc1 the inhibition was 27.6%.
CC(=O)NC1CCSC1=O (centres unmarked) has an inhibition of 2.62%.
The inhibition of C[C@H](N)C(=O)N[C@@]1(C(=O)O)C[C@@H](Sc2nnc[nH]2)[C@H]2[C@H](C(=O)O)[C@H]21 is reported as 3.23%.

Set 6
Cell line: HEK-293T/ACE2
Effect on: pseudovirus infection
Organism: VSV pseudotyped with SARS-CoV-2 spike
Tested at: concentration not given
Reference: vehicle-treated
COC(=O)c1ccc2c(c1)NC(=O)/C2=C(\Nc1ccc(N(C)C(=O)CN2CCN(C)CC2)cc1)c1ccccc1 has a GFP-positive cells of 78.4%.
CCOc1cc([C@@H](CS(C)(=O)=O)N2C(=O)c3cccc(NC(C)=O)c3C2=O)ccc1OC has a GFP-positive cells of 80.1%.
The GFP-positive cells of C[C@@H]1CCO[C@H]2Cn3cc(C(=O)NCc4ccc(F)cc4F)c(=O)c([O-])c3C(=O)N12.[Na+] is reported as 89.8%.
With CC(C)C(=O)OCC(=O)[C@@]12O[C@H](C3CCCCC3)O[C@@H]1C[C@H]1[C@@H]3CCC4=CC(=O)C=C[C@]4(C)[C@H]3[C@@H](O)C[C@@]12C the GFP-positive cells was 28.9%.
